Published values collected from several papers.
Compare with care: the assays were run in different laboratories.
Cell line: CCRF-CEM

C#C[C@@]1(O)[C@@H](CO)O[C@@H](n2cc(Cl)c3c(N)ncnc32)[C@@H]1O — GI50 (cell growth or viability, SRB; 48 h): 0.248 µM
COc1ccc(C[C@H]2COC(=O)[C@@H]2Cc2ccc(OCC(=O)NCCCCC(=O)Nc3ccccc3N)c(OC)c2)cc1OC — IC50 (cell growth or viability, CCK-8; 48 h): > 5 µM
Cc1cc(O)c2c(c1)C(=O)c1cc(O)cc(O)c1C2=O — IC50 (cell growth or viability, ATP luminescence; 24 h): 22 µM
COc1ccc(C[C@H]2COC(=O)[C@@H]2Cc2ccc(OCc3cn(CC(=O)NO)nn3)c(OC)c2)cc1OC — IC50 (cell growth or viability, CCK-8; 48 h): > 5 µM
Nc1ncnc2c1ncn2[C@@H]1O[C@H](CO)[C@@H](O)[C@H](F)[C@H]1O — IC50 (cell growth or viability): 124 µM
O=c1c(O)c(-c2ccc(O)c(O)c2)oc2cc(O)cc(O)c12 — IC50 (cell growth or viability, ATP luminescence; 24 h): 10 µM
COc1ccc(-c2nc([C@@H](C)Sc3nc(N)cc(N)n3)c(C)s2)cc1OCCN1CCOCC1 — EC50 (rescue from gemcitabine toxicity, CellTiter-Glo; 72 h, together with: gemcitabine 10 nM): 0.0102 µM
C#C[C@@]1(O)[C@@H](CO)O[C@@H](n2cc(Br)c3c(N)ncnc32)[C@@H]1O — GI50 (cell growth or viability, SRB; 48 h): 0.213 µM
COc1ccc(C[C@H]2COC(=O)[C@@H]2Cc2ccc(OCC(=O)NCCC(=O)Nc3ccccc3N)c(OC)c2)cc1OC — IC50 (cell growth or viability, CCK-8; 48 h): > 5 µM
Nc1ccn([C@@H]2O[C@H](CO)[C@@H](O)[C@H](F)[C@H]2O)c(=O)n1 — IC50 (cell growth or viability): 155 µM
CCOP(=O)(OCC)[C@H]1C[C@@H](Cn2c(=O)n(C(=O)c3ccccc3)c(=O)c3ccccc32)ON1Cc1ccccc1 (relative stereo) — IC50 (cell growth or viability; 72 h): ≥ 250 µM
O=C1c2cccc(O)c2C(=O)c2c(O)cc(CO)cc21 — IC50 (cell growth or viability, ATP luminescence; 24 h): 211 µM
COc1ccc(C[C@H]2COC(=O)[C@@H]2Cc2ccc(OCC(=O)Nc3ccc(C(=O)Nc4ccccc4N)cc3)c(OC)c2)cc1OC — IC50 (cell growth or viability, CCK-8; 48 h): 2.21 µM
O=c1cc(-c2ccccc2)oc2cc(O)cc(O)c12 — IC50 (cell growth or viability, ATP luminescence; 24 h): 128 µM
O=c1[nH]cc(F)c(=O)[nH]1 — IC50 (cell growth or viability; 72 h): 18 µM

A few entries again:
Cc1cc(O)c2c(c1)C(=O)c1cc(O)cc(O)c1C2=O — IC50 (cell growth or viability, ATP luminescence; 24 h): 22 µM
O=c1c(O)c(-c2ccc(O)c(O)c2)oc2cc(O)cc(O)c12 — IC50 (cell growth or viability, ATP luminescence; 24 h): 10 µM
